Results of several laboratories.
Each line is one published result; not all experiments were run side by side. Values joined by “and” are separate records of one study, mostly repeats; a detail may differ.

Compound	cell line	assay	test system	setting	scale	endpoint	result
Nc1ccc2cc3ccc(N)cc3nc2c1	BT-16	cell viability, MTT	–	10 µM, 72 h	–	inhibition	93.5%
CCc1cnc(N2CCC(c3nc(COc4ccc(-n5cnnn5)cc4)cs3)CC2)nc1	HEK293T	RNA-seq, measured: TRIB3 mRNA	–	10 µM, 6 h	baseline: vehicle	log2 fold change	0.402
Oc1nc2nonc2cc1Nc1ccc(F)cc1	L6	–	–	concentration not given	–	activity	inactive
C[C@@H]1COCCN1c1cc(C2([S@](C)(=N)=O)CC2)nc(-c2cc[nH]c3nccc2-3)n1	LoVo	cell growth, MTS	–	72 h, with: carboplatin 10 µM	–	synergistic concentration	≥ 0.3 µM
COc1cc2ncnc(Nc3ccc(Oc4ccccc4)c(C)c3C)c2cc1OC	MeWo (NF1 mutant)	resazurin	–	3 µM, 72 h, with: trametinib	baseline: DMSO	viability	84.8%
O=C(/C=C/C=C/C=C/C1CCCCC1)NC1=C[C@@](O)(/C=C/C=C/C=C/C(=O)NC2=C(O)CCC2=O)[C@@H]2O[C@@H]2C1=O	NCI-H441	cell growth, CellTiter-Glo	–	78 h	–	GI50	26.3 µM
Cc1cc(Nc2ncc(Cl)c(Nc3ccccc3S(=O)(=O)C(C)C)n2)c(OC(C)C)cc1C1CCNCC1	CLB-BAR	phosphoproteomics LC-MS/MS, measured: HELZ phosphorylation	–	200 nM, 60 min	baseline: untreated	log2 fold change	-2.35
Cc1cccc(-c2[nH]c(CNc3ccccc3F)nc2-c2ccc3ncnn3c2)n1	MM1.S pomalidomide-resistant	XTT	–	1 µM	–	viability	70% and 85% and 77%
N#Cc1cc(Nc2ncc3c(n2)CCCCC3=O)cs1	mouse CD4+CD25+ Treg cells	T cell proliferation	–	dose not given	–	Treg suppressive function	no effect
CCn1cc(-c2cc(Cn3ccnc3)cc3c2CCN([C@H](c2cc(OC)ccn2)C2CC2)C3=O)c(C(F)(F)F)n1	DU-4475	cell growth, inhibitor	–	120 h	–	EC50	3.01 µM
CC[C@]1(O)C[C@@H]2CN(CCc3c([nH]c4ccccc34)[C@@](C(=O)OC)(c3cc4c(cc3OC)N(C)[C@H]3[C@@](O)(C(=O)OC)[C@H](OC(C)=O)[C@]5(CC)C=CCN6CC[C@]43[C@@H]65)C2)C1	BT-16	cell viability, MTT	–	10 µM, 72 h	–	inhibition	87.9%
Fc1ccccc1-c1ccnc2[nH]c(C(F)(F)F)nc12	L6 myoblasts	oxygen consumption rate, Seahorse XF	–	–	baseline: BAM15 maximal respiration	Emax	6 to 22%
Nc1ncnc2c1ncn2[C@@H]1O[C@H](CO)[C@@H](O)[C@H]1O	unstimulated human T cells	–	–	31.6 µM, 72 h	higher = more viable cells	viability	76.8 a.u. and 85 a.u. and 82.3 a.u.
Cl.Cl.NCCNS(=O)(=O)c1ccc(Cl)c2ccncc12	SK-OV-3	ATP	3D gellan gum culture	1 µM, 4 days	baseline: untreated	relative cell number	98.1%
Clc1nc(NCc2ccco2)c2[nH]cnc2n1	FD iPSC-derived cardiomyocytes	alternative splicing, RNA-seq, measured: CEP78 exon chr9:78265858-78265906	–	unit not given	baseline: DMSO minus compound	ΔPSI	0.272
COc1cc2c(Oc3ccc(NC(=O)C4(C(=O)Nc5ccc(F)cc5)CC4)cc3F)ccnc2cc1OCCCN1CCOCC1	BT-16	cell viability, MTT	–	10 µM, 72 h	–	inhibition	94.4%
COc1cnc2cccc(N3CCc4c(cc(Cn5ccnc5C)cc4-c4cn(C)nc4C(F)(F)F)C3=O)c2c1	DU-4475	cell growth, inhibitor	–	120 h	–	EC50	7.97 µM
Cn1cc(-c2ccc(-c3cncc(Cl)c3N3CCC4(CCNC4=O)CC3)cc2)cn1	COLO 205	gene expression, microarray, measured: MXI1 mRNA	–	concentration not given, 6 h	baseline: untreated cells	log2 fold change	1.85
Cn1cc(Nc2nccc(-c3ccc4c(c3)CN(C3COC3)CC[C@H]4NC(=O)c3cn(C(C)(C)C)nn3)n2)cn1	mouse splenic B cells	measured: 3-phosphoinositide degradation	–	30 mg/kg, IgD-activated in vivo	baseline: vehicle, direction not given	pathway activation z-score	0.688
COC(=O)N[C@H](C(=O)N[C@@H](Cc1ccccc1)[C@@H](O)CN(Cc1ccc(-c2ccccn2)cc1)NC(=O)[C@@H](NC(=O)OC)C(C)(C)C)C(C)(C)C	ΔE-expressing cells	ΔE mislocalization, high-content imaging	–	–	–	maximal efficacy	inactive

Repeated from above:
Compound	cell line	assay	test system	setting	scale	endpoint	result
Cl.Cl.NCCNS(=O)(=O)c1ccc(Cl)c2ccncc12	SK-OV-3	ATP	3D gellan gum culture	1 µM, 4 days	baseline: untreated	relative cell number	98.1%
